Experimental data pooled from the literature.
Compare with care: the assays were run in different laboratories. Several values in a cell are separate wells, animals, samples, runs or records. ± gives the spread as reported.

Compound | assay | system | conditions | scale | measurement | result
[Cl-].[Cl-].[Pt+2].[Ru+2].c1ccc(-c2nccnc2-c2ccccn2)nc1.c1cnc2c(c1)ccc1cccnc12.c1cnc2c(c1)ccc1cccnc12 | – | – | concentration not given, second substitution step, with: L-methionine | – | activation enthalpy | 42 ± 4 kJ/mol
Cc1nc(-c2ccc(OCC(C)C)c(C#N)c2)sc1C(=O)O | – | mouse, chronic hyperuricaemia model, serum | dose not given | – | serum uric acid | 244 µM and 274 µM and 219 µM and 184 µM and 266 µM
O=S(=O)(NCCNC/C=C/c1ccc(Br)cc1)c1cccc2cnccc12 | – | mouse zygotes | 20 µM, 96 h post-hCG | – | embryos reaching 4-cell | 5% and 5.88%
COc1cc2nccc(Oc3ccc(NC(=O)NC4CC4)c(Cl)c3)c2cc1C(N)=O | PK/PD model NONMEM estimate | Thyroid cancer patients, differentiated, radioiodine-refractory | – | – | rate constant of resistance appearance | 0.259 /week
FC(F)(F)Oc1cccc(-c2cnc3ccc(-c4ccncc4)nn23)c1 | bioluminescence | mouse, MDA-MB-231-Luc xenograft | 10 mg/kg, day 21 | – | tumour growth | 150% and 805% and 408% and 447% and 346% and 606%
Cc1cc([C@H]2C[C@H]3[C@@H](CF)SC(N)=N[C@@]3(c3ccc(F)cc3F)CO2)on1 | refers to: Aβx-40 | wild-type mouse, brain | subcutaneous, 30 mg/kg, 9 h | – | brain Aβ40 level | 2.56 ng/g
C[C@H]1C[C@H]2CSC(N)=N[C@@]2(c2nc(NC(=O)c3ccc(OC(F)F)cn3)cs2)CO1 | – | healthy adults, fed, plasma | oral, 200 mg single dose, 48 h | relative to: baseline, placebo-adjusted | plasma Aβx-40 change | -62.4%
NCC(=O)Nc1cncc(-c2nn3c(=O)cc(N4CCNCC4)nc3s2)c1 | ADP-induced platelet aggregation, light transmission aggregometry | human, stable CAD on aspirin, ex vivo platelets | subcutaneous, 0.04 mg/kg, 15 min post-dose, mean value, with: ADP 20 µM | – | inhibition | 53.5%
CC(=O)NCC(=O)NCC(=O)N[C@H](C(=O)N[C@@H](Cc1ccc(O)cc1)C(=O)N[C@@H](CO)C(=O)N[C@H]1CSSC[C@@H](C(=O)N[C@@H](CCCNC(=N)N)C(=O)N2CCC[C@H]2C(=O)N[C@@H](CCC(N)=O)C(=O)N[C@@H](CCCNC(=N)N)C(=O)NCC(=O)NCCC(=O)N[C@@H](CCCCNC(=O)CN(CC(=O)NCCCC[C@H](NC(=O)CCNC(=O)CNC(=O)[C@H](CCCNC(=N)N)NC(=O)[C@H](CCC(N)=O)NC(=O)[C@@H]2CCCN2C(=O)[C@H](CCCNC(=N)N)NC(=O)[C@@H]2CSSC[C@H](NC(=O)[C@H](CO)NC(=O)[C@H](Cc3ccc(O)cc3)NC(=O)[C@@H](NC(=O)CNC(=O)CNC(C)=O)[C@@H](C)O)C(=O)N[C@@H](Cc3c[nH]cn3)C(=O)N[C@@H](Cc3ccccc3)C(=O)NCC(=O)N[C@@H](C)C(=O)N[C@@H](CC(C)C)C(=O)N[C@@H]([C@@H](C)O)C(=O)N[C@@H](Cc3c[nH]c4ccccc34)C(=O)N[C@@H](C(C)C)C(=O)N2)C(N)=O)C(=O)CCN)C(N)=O)NC(=O)[C@H](C(C)C)NC(=O)[C@H](Cc2c[nH]c3ccccc23)NC(=O)[C@H]([C@@H](C)O)NC(=O)[C@H](CC(C)C)NC(=O)[C@H](C)NC(=O)CNC(=O)[C@H](Cc2ccccc2)NC(=O)[C@H](Cc2c[nH]cn2)NC1=O)[C@@H](C)O | – | healthy BALB/c mice | subcutaneous, 0.16 mg/kg, 4 d, single dose | – | haemoglobin | 158 g/L
CC1(C)CCC(CN2CCN(c3ccc(C(=O)NS(=O)(=O)c4ccc(NCC5CCOCC5)c([N+](=O)[O-])c4)c(Oc4cnc5[nH]ccc5c4)c3)CC2)=C(c2ccc(Cl)cc2)C1 | cell kill, PI exclusion flow cytometry | neoplastic T lymphocytes, human, thawed lymph node | 24 h | – | EC50 | 6.3 nM
N#CCC1CCN(c2nc(Nc3ccc(N4CCC(O)CC4)cc3)c3c(=O)[nH]ncc3n2)CC1 | Olink multiplex | human, serum | 40 mg, day 15, unit not given | relative to: baseline | osteopontin level change | -1.28
COc1cc2nccc(Oc3ccc(NC(=O)c4cc5c(n(-c6ccccc6)c4=O)CCCC5=O)nc3)c2cc1OC | – | MOLM-13 luc/GFP, mouse xenograft AML | in feed, 0.013% in feed | relative to: compound over control | hazard ratio | 0.181
CC(C)C[C@H](NC(=O)[C@@H](Cc1c[nH]c2ccccc12)NC(=O)[C@H](Cc1ccc(O)cc1)NC(=O)[C@H](CO)NC(=O)[C@H](Cc1c[nH]c2ccccc12)NC(=O)[C@H](Cc1c[nH]cn1)NC(=O)[C@@H]1CCC(=O)N1)C(=O)N[C@@H](CCCNC(=N)N)C(=O)N1CCC[C@H]1C(=O)NCC(N)=O | – | Chinese children, central precocious puberty, serum | intramuscular, 22.5 mg day 1, month 6, month 3 | – | basal FSH level | 1.16 IU/L
C[C@H](NC(=O)c1c(C(F)F)nn(C)c1Oc1cccc(C(F)(F)F)c1)c1ccc(C(=O)O)cc1 | irRECIST | human, advanced tumours | 125 mg | best overall response | complete response | 0%
N#Cc1ccc2c(-c3ccncc3)c(-c3ccc(F)cc3)nn2c1 | kinase binding, competitor, MIB/MS competition, refers to: YAK1 | Candida albicans cell lysate | 1 µM | relative to: DMSO | log2 fold change | 0.0417
NC(=O)c1cnc2[nH]ccc2c1N[C@@H]1[C@@H]2CC3C[C@H]1C[C@@](O)(C3)C2 | flow cytometry | Japanese healthy men, blood | oral, 30 mg twice daily, 72 h after day 7 dose | relative to: baseline | CD4+ effector T-cell change | 0.02%
COc1ccc(-c2cncc(N[C@@H](C)c3cccc(NC(=O)c4cncc(C)c4)c3)n2)cc1OC | refers to: rno-miR-17-5p | rat SU5416/hypoxia model, lung | dose not given, unit not given | relative to: SU5416/hypoxia vehicle | delta delta Ct | -0.745
O=C(O)CNC(=O)Cc1ccccc1 | – | ventricular cardiomyocytes, C57BL/6 mouse | dose not given, 0.844 s | – | sarcomere length | 1.63 µm
C[C@H](Oc1ccc(Br)cc1-c1ccon1)C(=O)O | response peak | human, tibialis anterior muscle | 800 mg, 30 Hz+30 s | – | difference from placebo | 5.37%
CSCCNc1nc(SCCC(F)(F)F)nc2c1ncn2[C@@H]1O[C@H](COP(=O)(O)OP(=O)(O)C(Cl)(Cl)P(=O)(O)O)[C@@H](O)[C@H]1O | ADP-induced platelet aggregation, light transmittance aggregometry | human patients, platelet-rich plasma | dose not given, 30 min, aggregation above 59%, with: ADP 20 µM | relative to: patients | high residual platelet reactivity | 55%
CC(C)(O)c1coc(S(=O)(=O)NC(=O)c2cc3ccccc3n2Cc2ccc(Br)c3ccccc23)c1 | – | mouse, acute hyperuricemia model | dose not given | – | serum uric acid | 178 µM and 546 µM and 261 µM and 498 µM and 311 µM
OC(CCN1CCCCC1)(c1ccccc1)C1CC2C=CC1C2 (stereo not shown) | resting-state EEG | healthy elderly humans | oral, 4 mg, eyes closed, LS mean | relative to: baseline | delta power change, EEG, in Pz-O1 | 27.2%
COc1cc2cc(-c3ccc(CC(=O)Nc4cc(C(C)(C)C(F)(F)F)no4)cn3)cnc2cc1OC | RECIST v1.1 | RET-altered advanced solid tumour patients | oral, 100 mg once daily, phase I | – | disease control rate | 100%

Compound | assay | system | conditions | scale | measurement | result
C[C@@H](NC(=O)N1C(=O)[C@H](Cc2ccnc(N)c2)[C@H]1C(=O)O)C1CCCCC1 | – | human | iv infusion, 1.0 mg/kg/h, 24 h | – | time to ACT Emax | 96 h
[Cl-].[Cl-].[Pt+2].[Ru+2].c1ccc(-c2nc3cc4ccccc4cc3nc2-c2ccccn2)nc1.c1cnc2c(c1)ccc1cccnc12.c1cnc2c(c1)ccc1cccnc12 | chloride substitution, UV-vis kinetics | aqueous buffer | pH 7.2, 35 °C, second substitution step, with: guanosine 5'-monophosphate | – | activation free energy | 85 ± 5 kJ/mol
C=CCn1c(=O)c2cnc(Nc3ccc(N4CCN(C)CC4)cc3)nc2n1-c1ccc2c(n1)[C@@](O)(CC)CC2 | – | human, target lesions | oral, 350 mg once daily, cycle 3 | – | target lesion reduction | 49%
N#Cc1ccc2c(CN3CCOCC3)cc(-c3ccc([C@H]4CCC(=O)N4)cc3)nc2c1 | – | monocyte-derived macrophages, type 1 diabetes donors | 10 µM, 16 h | relative to: vehicle | CCL2 mRNA level | decreased
N#Cc1ccc2c(c1)[C@H]1CCCN(C(=O)c3ccc4[nH]cnc4c3)[C@H]1C2 | – | T2DM patients with overweight or obesity, plasma | oral, 40 mg, day 15 (360 h), multiple dosing, mean | – | plasma 1,5-anhydroglucitol | 11.3 µg/mL
O=C(O)CCc1nccc2c3ccccc3n(Cc3ccc(C4CC4)cc3)c12 | – | mouse, acute hyperuricaemia model, serum | oral, 2 mg/kg, individual animal data | – | serum uric acid | 942 µM and 621 µM and 850 µM and 990 µM and 683 µM
O=P(O)(O)C(Cl)(Cl)P(=O)(O)O | – | Mus musculus, sham-operated, hippocampal fissure | concentration not given, day 1 | relative to: total area | GFAP-positive area | 4.26% and 3.29% and 3.15%
CC(C)NCC(O)c1ccc(O)c(O)c1 (stereo not shown) | – | ventricular cardiomyocytes, C57BL/6 mouse | dose not given, 0.696 s | – | sarcomere length | 1.72 µm
COc1ccc(S(=O)(=O)NC(=O)c2cc3ccccc3n2Cc2ccc(C3CC3)c3ccccc23)cc1 | – | mouse, acute hyperuricaemia model, serum | oral, 2 mg/kg | relative to: vehicle model | serum uric acid decrease | 85.3%
O=c1cc(-c2ccc(O)c(O)c2)oc2cc(O)cc(O)c12 | Western blot, refers to: occludin, claudin-1, ZO-1 | duck, intestine | dose not given | – | protein level | decreased
CN[C@@H](C)C(=O)N[C@H]1CN(S(=O)(=O)c2cccc(S(=O)(=O)N3CC[C@H]4CC[C@@H](C(=O)NC(c5ccccc5)c5ccccc5)N4C(=O)[C@@H](NC(=O)[C@H](C)NC)C3)c2)CC[C@H]2CC[C@@H](C(=O)NC(c3ccccc3)c3ccccc3)N2C1=O | RECIST 1.1 | advanced pancreatic cancer patients | dose not given, with: nab-paclitaxel plus gemcitabine | – | duration of response | 7.36 months
Cc1cc(C)c(CNC(=O)c2cc(Cl)c3c(c2C)O[C@@](C)([C@H]2CC[C@H](N(C)C)CC2)O3)c(=O)[nH]1 | IWG 2007 criteria | human, relapsed/refractory B-cell NHL | dose not given | – | best overall response PD | 11%
COc1nnc2ccc(N3CCC(c4ccc(OCCN5CCN(C)C(=O)[C@H]5C)cc4)CC3)nn12 | – | human patients | 30 mg once daily, above baseline variability | – | time above HEXIM1 threshold | 5.62 h
CN(C)C(=O)c1cc2cnc(Nc3ccc(N4CCNCC4)cn3)nc2n1C1CCCC1 | – | HR+/HER2− advanced breast cancer patients | dose not given, no (neo)adjuvant hormone therapy | – | median PFS2 | 50.5 months
CCN1CCN(Cc2ccc(Nc3ncc(F)c(-c4cc(F)c5nc6n(c5c4)[C@H](C)CCC6)n3)nc2)CC1 | Phase Ia, RECIST v1.1 | patients with advanced solid tumours | dose not given, monotherapy, investigator-assessed | – | disease control rate | 70.8%
O=C(O)Cc1ccccc1Nc1c(Cl)cccc1Cl | bioactivation, refers to: dansyl glutathione adduct M6 | human | pathway 3 | – | Vmax | 52 pmol/min/mg protein
Cc1n[nH]c2ccc(-c3cc(OC[C@@H](N)Cc4ccccc4)cnc3-c3ccoc3)cc12 | kinase binding, competitor, MIB/MS competition, refers to: RCK2 | Candida albicans cell lysate | 1 µM | relative to: DMSO | log2 fold change | -0.109
C[C@@H](O)CCOC(=O)C[C@@H](C)O | refers to: C18-OH/C16-DC acylcarnitine | human, plasma | 60 min, log2-transformed values | – | metabolite level | -7.1 ± 0.54 µmol/L
CO[C@H]1CC[C@H](N2C(=O)CNc3ncc(-c4ccc(C(C)(C)O)nc4)nc32)CC1 | flow cytometry | stimulated B cells, human, blood | 60 mg single dose, 5 h, median | relative to: baseline | pS6RP change from baseline | -73.3%
CCCS(=O)(=O)NC(=O)c1cc2ccccc2n1Cc1ccc(C2CC2)c2ccccc12 | – | male mouse, acute hyperuricaemia model, serum | oral, 2 mg/kg, 4 h | – | serum uric acid | 287 ± 98.7 µM
c1ccc(-c2n[nH]cc2-c2ccnc3ccccc23)nc1 | kinase binding, competitor, MIB/MS competition, refers to: TOR1 | Candida albicans cell lysate | 10 µM | relative to: DMSO | log2 fold change | 0.732
[Cl-].[Cl-].[Pt+2].[Ru+2].c1ccc(-c2nc3ccccc3nc2-c2ccccn2)nc1.c1cnc2c(c1)ccc1cccnc12.c1cnc2c(c1)ccc1cccnc12 | – | – | concentration not given, first substitution step, with: guanosine 5'-monophosphate | – | activation enthalpy | 33 ± 2 kJ/mol
Cc1nn(-c2nc3c(F)cc(F)cc3s2)c(O)c1C(c1ccc(C(F)(F)F)cc1)c1c(C)nn(-c2nc3c(F)cc(F)cc3s2)c1O | – | mouse, cerulein-induced acute pancreatitis, serum | 25 mg/kg | – | serum amylase activity | 71.1 mOD/min and 102 mOD/min and 67 mOD/min and 135 mOD/min and 97.5 mOD/min and 153 mOD/min and 86.3 mOD/min and 43.9 mOD/min

Repeated from above:
Compound | assay | system | conditions | scale | measurement | result
C=CCn1c(=O)c2cnc(Nc3ccc(N4CCN(C)CC4)cc3)nc2n1-c1ccc2c(n1)[C@@](O)(CC)CC2 | – | human, target lesions | oral, 350 mg once daily, cycle 3 | – | target lesion reduction | 49%
N#Cc1ccc2c(CN3CCOCC3)cc(-c3ccc([C@H]4CCC(=O)N4)cc3)nc2c1 | – | monocyte-derived macrophages, type 1 diabetes donors | 10 µM, 16 h | relative to: vehicle | CCL2 mRNA level | decreased
N#Cc1ccc2c(c1)[C@H]1CCCN(C(=O)c3ccc4[nH]cnc4c3)[C@H]1C2 | – | T2DM patients with overweight or obesity, plasma | oral, 40 mg, day 15 (360 h), multiple dosing, mean | – | plasma 1,5-anhydroglucitol | 11.3 µg/mL
